Published values from different studies.
Parts stem from different laboratories: compare values within a part only. Substitutions count along the parent as printed.

Sample 1 — technique: Sort-seq; measured: YFP reporter; sample: E. coli; setting: PhoQ-PhoP variant library; added: 10 µM Mg2+; relative to: high Mg2+ state; direction: higher = stronger signaling
Molecule: PhoQ, residues 284 288 289 292 302 303 GNNTDL
target	fold induction
PhoP, residues 12 14 15 18 19 GMGLL (Escherichia coli, UniProt P23836)	2.43
PhoP, residues 12 14 15 18 19 LFHKL (Escherichia coli, UniProt P23836)	1.8
PhoP, residues 12 14 15 18 19 QQAYL (Escherichia coli, UniProt P23836)	5.47

Sample 2 — technique: protein-binding microarray; form: double-stranded DNA, one strand shown; sample: in vitro; concentration: 2540 nM top; setting: 60-bp whole probe; added: salmon DNA 0.4 mg/ml; relative to: random background probes; direction: higher = stronger binding; all sequences stand within: GCCTAGCAC … GTCTTGATTCGCTTGACGCTGCTG
Target: Interferon regulatory factor 3, full length, phosphomimetic (IRF3, Homo sapiens, UniProt Q14653, residues 1-427, S386D/S396D/S398D/S402D/T404D/S405D)
Residues (chain): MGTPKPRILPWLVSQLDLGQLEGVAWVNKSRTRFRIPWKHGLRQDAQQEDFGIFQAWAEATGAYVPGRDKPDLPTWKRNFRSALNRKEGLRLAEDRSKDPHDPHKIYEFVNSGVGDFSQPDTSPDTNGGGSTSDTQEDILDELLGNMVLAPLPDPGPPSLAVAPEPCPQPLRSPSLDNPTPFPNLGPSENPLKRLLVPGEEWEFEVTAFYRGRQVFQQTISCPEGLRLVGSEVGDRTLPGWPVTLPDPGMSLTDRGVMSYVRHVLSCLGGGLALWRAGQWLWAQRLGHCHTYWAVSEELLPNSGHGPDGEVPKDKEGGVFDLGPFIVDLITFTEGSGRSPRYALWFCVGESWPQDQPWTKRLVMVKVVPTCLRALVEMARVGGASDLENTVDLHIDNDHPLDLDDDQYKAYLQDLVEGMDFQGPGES
Strand	fitted relative affinity
AAGACTTTGCTCTGTGCGTAGGTGCTA	-0.642 z-score
TTAGGACTGGGCTTCGGTTAGTGCTAG	-0.977 z-score
TTCGGTTTCCTTATCCTTTAGTGCTAG	9.17 z-score
TTAGGTTTCGACACTGGGTTCGTGCTA	2.42 z-score
GACGGCCTCCTTTTCCTGACGTGCTAG	0.798 z-score
GACGCACTGGGTCTCGGGACGTGCTAG	-0.85 z-score
TTAGAACTGGCGACTGGATTAGTGCTA	-0.819 z-score
TCATCTTGTTCTCTCTGACTGTGCTAG	1.16 z-score
GTAGGACTGCTTCTCCTTTAGTGCTAG	-0.103 z-score
GACGATTTCGCGTATCGAGACGTGCTA	0.829 z-score
GACGGTTTCGGGTTTCGGCACGTGCTA	5.53 z-score
TTACGTATCCTTTTCCTTTAGTGCTAG	8.06 z-score

Sample 3 — target: CCNF, cyclin fold, Cln2 fusion (human); technique: yeast growth competition, sequencing; sample: yeast; setting: strong parent motif; relative to: not given; direction: higher = stronger binding
Parent: SCAPER docking peptide (human); SNARRSLNFGGST; partner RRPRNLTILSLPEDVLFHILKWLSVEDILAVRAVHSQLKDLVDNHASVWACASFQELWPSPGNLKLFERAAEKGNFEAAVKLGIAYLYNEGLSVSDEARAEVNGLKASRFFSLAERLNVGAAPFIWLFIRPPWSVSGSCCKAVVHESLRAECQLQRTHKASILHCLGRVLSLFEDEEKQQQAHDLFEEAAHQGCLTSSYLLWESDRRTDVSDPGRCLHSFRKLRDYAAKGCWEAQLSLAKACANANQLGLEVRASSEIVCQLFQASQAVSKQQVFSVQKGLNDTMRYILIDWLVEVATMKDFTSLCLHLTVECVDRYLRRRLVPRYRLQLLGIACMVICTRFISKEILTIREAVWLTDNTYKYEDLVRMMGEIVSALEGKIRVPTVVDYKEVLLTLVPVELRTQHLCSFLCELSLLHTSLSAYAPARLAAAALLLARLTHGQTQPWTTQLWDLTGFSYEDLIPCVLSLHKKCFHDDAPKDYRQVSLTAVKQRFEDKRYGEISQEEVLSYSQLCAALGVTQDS
Variant	normalised enrichment score
L7M	0.907
G11E	6.4
R4Q	5.2
G10S	6.96
S12H	7.71
L7E	-0.442
S1L	8.05
G11P	8.02
S6P	4.28
S6E	5.3
N8E	5.71
G10Q	6.33
T13P	7.09

Sample 4 — technique: protein binding microarray; form: double-stranded DNA, one strand shown; sample: in vitro; concentration: not given; relative to: not given; direction: higher = stronger binding
Target: Histone acetyltransferase KAT6A, winged helix 1, GST fusion (KAT6A, Homo sapiens, UniProt Q92794, residues 1-85)
Setting: 8-mer, flanks averaged, mean of 2 arrays, mostly near background
Target sequence (chain): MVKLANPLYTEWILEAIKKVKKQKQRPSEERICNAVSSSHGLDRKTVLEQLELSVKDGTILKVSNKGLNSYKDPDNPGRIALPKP
Strand	E-score
CGCATTTC	0.146
AGGCCAAG	-0.124
GATCGAAC	-0.107
AATCTACT	0.0462
ACCTATCA	-0.0727
GTGTAACA	-0.0609
CAAACCGG	0.171
CACGATAA	-0.167
CTAACTGC	-0.0513
CTCATCCC	-0.078

Repeated from above (sample 3):
Variant	normalised enrichment score
G11P	8.02
G10Q	6.33
S6P	4.28
R4Q	5.2
